Assay results gathered from unrelated publications.
Every numbered part comes from another study and shows a few of its results, in no order. Several values in a cell are separate wells, animals, samples, runs or records.
UniProt O94804, sequence (whole entry, looked up): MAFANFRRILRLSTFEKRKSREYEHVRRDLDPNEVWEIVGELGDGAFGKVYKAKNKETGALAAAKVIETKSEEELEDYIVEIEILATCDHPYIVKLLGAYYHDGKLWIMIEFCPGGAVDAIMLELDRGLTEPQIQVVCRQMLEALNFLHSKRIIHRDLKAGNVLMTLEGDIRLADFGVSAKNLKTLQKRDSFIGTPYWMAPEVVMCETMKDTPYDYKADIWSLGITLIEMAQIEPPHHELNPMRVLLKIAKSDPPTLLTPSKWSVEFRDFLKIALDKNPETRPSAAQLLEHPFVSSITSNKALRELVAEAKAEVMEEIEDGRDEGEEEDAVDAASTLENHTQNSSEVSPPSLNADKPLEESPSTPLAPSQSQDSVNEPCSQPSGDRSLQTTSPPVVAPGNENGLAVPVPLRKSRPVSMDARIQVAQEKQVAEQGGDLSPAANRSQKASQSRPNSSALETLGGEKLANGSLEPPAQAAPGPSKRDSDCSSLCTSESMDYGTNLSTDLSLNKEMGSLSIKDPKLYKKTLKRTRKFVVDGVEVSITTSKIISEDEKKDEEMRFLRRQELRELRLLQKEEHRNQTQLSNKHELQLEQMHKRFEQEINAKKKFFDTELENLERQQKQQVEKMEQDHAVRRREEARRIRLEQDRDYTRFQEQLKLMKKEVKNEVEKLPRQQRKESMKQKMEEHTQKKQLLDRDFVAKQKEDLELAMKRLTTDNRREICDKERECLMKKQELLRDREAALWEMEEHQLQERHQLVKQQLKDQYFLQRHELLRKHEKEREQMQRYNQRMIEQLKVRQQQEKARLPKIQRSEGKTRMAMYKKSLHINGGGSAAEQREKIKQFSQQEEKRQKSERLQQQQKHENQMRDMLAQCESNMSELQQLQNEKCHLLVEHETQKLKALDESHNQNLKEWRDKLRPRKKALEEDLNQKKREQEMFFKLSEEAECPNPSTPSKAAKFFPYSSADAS
UniProt Q99759, sequence (whole entry, looked up): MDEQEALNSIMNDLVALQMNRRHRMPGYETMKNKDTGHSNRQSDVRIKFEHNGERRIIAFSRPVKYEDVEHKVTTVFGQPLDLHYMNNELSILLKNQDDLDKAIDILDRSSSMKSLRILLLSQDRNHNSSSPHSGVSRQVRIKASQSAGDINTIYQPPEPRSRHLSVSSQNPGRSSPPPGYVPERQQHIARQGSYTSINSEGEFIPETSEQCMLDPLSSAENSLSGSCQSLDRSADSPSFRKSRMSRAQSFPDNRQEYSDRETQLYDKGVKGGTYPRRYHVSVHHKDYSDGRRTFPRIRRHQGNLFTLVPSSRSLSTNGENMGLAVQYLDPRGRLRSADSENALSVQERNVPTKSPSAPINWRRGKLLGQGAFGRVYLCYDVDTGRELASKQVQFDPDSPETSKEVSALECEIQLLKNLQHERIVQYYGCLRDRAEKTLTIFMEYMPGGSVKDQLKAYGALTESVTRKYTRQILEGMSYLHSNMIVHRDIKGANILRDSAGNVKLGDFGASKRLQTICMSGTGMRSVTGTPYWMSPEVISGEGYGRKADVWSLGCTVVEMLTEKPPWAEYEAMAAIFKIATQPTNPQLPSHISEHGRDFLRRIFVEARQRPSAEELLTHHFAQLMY
UniProt Q96RR4, sequence (whole entry, looked up): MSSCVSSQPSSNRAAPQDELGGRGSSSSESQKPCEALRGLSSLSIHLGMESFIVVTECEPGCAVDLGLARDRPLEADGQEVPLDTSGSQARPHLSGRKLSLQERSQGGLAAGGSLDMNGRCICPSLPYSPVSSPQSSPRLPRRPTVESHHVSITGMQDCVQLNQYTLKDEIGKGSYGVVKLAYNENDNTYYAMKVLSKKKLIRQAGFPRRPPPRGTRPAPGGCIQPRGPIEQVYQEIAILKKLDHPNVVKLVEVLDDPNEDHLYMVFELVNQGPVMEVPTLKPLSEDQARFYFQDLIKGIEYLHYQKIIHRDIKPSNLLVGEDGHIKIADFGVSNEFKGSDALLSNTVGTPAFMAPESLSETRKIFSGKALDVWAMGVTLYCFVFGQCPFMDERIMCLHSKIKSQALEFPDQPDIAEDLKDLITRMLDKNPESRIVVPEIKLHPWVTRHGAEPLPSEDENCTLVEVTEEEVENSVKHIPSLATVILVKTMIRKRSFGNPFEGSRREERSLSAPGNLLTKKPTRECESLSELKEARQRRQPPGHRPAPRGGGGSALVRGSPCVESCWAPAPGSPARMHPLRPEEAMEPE
UniProt Q00535, sequence (whole entry, looked up): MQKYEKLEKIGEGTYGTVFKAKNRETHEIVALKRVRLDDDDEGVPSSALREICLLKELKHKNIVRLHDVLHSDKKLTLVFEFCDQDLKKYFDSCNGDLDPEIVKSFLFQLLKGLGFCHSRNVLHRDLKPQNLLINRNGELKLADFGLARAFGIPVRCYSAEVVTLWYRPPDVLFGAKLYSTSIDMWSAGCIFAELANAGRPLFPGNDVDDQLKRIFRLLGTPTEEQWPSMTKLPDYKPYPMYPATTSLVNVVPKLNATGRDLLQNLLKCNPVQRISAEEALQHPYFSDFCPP

Study 1
Structure (SMILES): C[C@@]1(Cc2ccc(C#N)cc2)C(=O)N(c2cc(Cl)cc(Cl)c2)c2ncc(C(=O)NC3(c4nc(C5CCC5)no4)CC3)n21
Effect on: cell-free assay
Method: competition with immobilised ligand
Concentration: 1 µM
Endpoint: remaining binding
target = STK16 (Homo sapiens, UniProt O75716); value = 100%
target = MAP4K2 (Homo sapiens, UniProt Q12851); value = 100%
target = MYLK4 (Homo sapiens, UniProt Q86YV6); value = 100%
target = CSNK1A1L (Homo sapiens, UniProt Q8N752); value = 89%
target = HCK (Homo sapiens, UniProt P08631); value = 100%
target = WNK3 (Homo sapiens, UniProt Q9BYP7); value = 100%
target = EPHA7 (Homo sapiens, UniProt Q15375); value = 92%
target = MAP3K3 (Homo sapiens, UniProt Q99759); value = 100%
target = MAP3K1 (Homo sapiens, UniProt Q13233); value = 100%
target = DYRK1B (Homo sapiens, UniProt Q9Y463); value = 80%
target = MAP3K19 (Homo sapiens, UniProt Q56UN5); value = 100%
target = PRKD3 (Homo sapiens, UniProt O94806); value = 87%
target = Aurora kinase C (AURKC, Homo sapiens, UniProt Q9UQB9); value = 100%
target = HASPIN (Homo sapiens, UniProt Q8TF76); value = 100%
target = CDC42BPB (Homo sapiens, UniProt Q9Y5S2); value = 100%
target = TTK (Homo sapiens, UniProt P33981); value = 94%
target = MARK4 (Homo sapiens, UniProt Q96L34); value = 100%
target = STK10 (Homo sapiens, UniProt O94804); value = 100%
target = MAP2K1 (Homo sapiens, UniProt Q02750); value = 97%
target = EGFR (Homo sapiens, UniProt P00533, T790M); value = 86%
target = STK32C (Homo sapiens, UniProt Q86UX6); value = 99%

Study 2
Target: DNA polymerase theta, ATPase domain (POLQ, Homo sapiens, UniProt O75417)
UniProt O75417, sequence (whole entry, unmodified, looked up): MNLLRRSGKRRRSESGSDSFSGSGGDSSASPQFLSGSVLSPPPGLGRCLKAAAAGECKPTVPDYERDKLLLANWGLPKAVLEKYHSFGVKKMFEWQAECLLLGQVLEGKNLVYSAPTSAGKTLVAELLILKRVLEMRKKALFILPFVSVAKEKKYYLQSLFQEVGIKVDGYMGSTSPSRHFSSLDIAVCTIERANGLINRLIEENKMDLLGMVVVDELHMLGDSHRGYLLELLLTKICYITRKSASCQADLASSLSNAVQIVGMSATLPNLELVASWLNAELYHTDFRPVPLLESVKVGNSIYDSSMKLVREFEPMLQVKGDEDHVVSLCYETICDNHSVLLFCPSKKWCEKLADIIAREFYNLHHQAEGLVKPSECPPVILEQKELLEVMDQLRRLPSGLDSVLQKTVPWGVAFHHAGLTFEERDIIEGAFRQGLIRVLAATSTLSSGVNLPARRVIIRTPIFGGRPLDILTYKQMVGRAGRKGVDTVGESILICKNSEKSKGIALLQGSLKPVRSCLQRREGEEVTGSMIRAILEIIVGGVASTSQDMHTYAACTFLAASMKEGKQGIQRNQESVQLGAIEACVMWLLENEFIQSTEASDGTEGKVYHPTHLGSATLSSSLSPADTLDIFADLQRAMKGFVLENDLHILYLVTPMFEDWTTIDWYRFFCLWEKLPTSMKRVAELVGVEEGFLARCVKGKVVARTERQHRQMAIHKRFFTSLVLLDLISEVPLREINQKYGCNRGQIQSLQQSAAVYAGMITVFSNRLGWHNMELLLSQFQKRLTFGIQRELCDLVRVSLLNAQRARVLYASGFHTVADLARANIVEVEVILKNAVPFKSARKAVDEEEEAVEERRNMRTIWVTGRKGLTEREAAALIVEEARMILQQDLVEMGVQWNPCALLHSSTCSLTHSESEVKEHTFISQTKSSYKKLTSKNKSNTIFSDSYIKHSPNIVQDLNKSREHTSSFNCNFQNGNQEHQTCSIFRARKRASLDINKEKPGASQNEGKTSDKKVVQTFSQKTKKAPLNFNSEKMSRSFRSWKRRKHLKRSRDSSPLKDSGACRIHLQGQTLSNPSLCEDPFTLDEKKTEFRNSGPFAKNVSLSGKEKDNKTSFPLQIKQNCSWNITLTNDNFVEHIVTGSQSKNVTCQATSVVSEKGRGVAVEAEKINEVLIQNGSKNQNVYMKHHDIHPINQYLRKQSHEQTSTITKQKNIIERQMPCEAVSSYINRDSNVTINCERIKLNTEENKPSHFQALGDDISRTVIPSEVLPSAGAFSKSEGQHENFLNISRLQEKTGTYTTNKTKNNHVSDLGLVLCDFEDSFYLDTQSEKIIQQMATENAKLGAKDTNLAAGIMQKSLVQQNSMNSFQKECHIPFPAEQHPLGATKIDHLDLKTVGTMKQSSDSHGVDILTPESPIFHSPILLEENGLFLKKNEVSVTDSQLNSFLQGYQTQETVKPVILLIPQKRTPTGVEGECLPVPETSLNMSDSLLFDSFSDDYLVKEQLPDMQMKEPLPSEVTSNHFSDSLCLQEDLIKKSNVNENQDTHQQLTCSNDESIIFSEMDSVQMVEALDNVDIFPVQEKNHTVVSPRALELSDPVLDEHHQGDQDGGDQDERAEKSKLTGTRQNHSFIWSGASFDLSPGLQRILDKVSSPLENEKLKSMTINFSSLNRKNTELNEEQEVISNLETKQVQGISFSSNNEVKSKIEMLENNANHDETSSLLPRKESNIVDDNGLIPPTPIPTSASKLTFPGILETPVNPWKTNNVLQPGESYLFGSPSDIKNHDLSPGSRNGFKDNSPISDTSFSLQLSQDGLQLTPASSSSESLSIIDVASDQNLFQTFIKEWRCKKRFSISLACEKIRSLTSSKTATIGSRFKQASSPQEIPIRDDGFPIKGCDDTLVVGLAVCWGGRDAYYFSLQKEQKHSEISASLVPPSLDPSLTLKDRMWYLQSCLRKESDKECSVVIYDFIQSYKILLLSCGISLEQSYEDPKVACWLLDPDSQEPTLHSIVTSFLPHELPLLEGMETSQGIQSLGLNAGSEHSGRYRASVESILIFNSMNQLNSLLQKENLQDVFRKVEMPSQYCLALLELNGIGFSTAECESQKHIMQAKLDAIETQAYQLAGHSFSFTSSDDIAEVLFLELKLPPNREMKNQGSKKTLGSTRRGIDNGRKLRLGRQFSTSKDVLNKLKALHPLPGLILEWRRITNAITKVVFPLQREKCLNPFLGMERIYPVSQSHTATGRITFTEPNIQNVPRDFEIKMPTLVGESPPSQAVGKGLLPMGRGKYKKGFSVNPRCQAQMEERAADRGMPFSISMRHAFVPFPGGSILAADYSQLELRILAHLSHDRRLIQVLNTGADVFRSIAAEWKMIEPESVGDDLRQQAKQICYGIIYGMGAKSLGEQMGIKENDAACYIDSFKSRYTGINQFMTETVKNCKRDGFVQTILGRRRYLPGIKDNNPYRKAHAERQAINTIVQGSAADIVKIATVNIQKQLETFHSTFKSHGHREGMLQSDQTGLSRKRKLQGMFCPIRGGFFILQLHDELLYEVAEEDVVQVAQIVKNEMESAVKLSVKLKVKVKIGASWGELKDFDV
Effect on: enzyme activity
Mode: inhibitor
Concentration: 77 µM
Endpoint: remaining activity
SMILES = C=C(C)[C@@H]1CC[C@]2(CO)CC[C@]3(C)[C@H](CC[C@@H]4[C@@]5(C)CC[C@H](O)C(C)(C)[C@@H]5CC[C@]43C)[C@@H]12; value = 104%
SMILES = Oc1cc2c(c(Cl)c1O)CCNCC2c1ccccc1 (stereo not drawn); value = 103%
SMILES = O=C(Nc1cc(C(F)(F)F)cc(C(F)(F)F)c1)c1cc(Cl)ccc1O; value = 115%
SMILES = CC(C)NCC(O)COc1cccc2[nH]ccc12 (stereo not drawn); value = 93.1%
SMILES = CCc1cnn2c(NCc3ccc[n+]([O-])c3)cc(N3CCCC[C@H]3CCO)nc12; value = 94.2%
SMILES = O=S(=O)(c1cccc2cnccc12)N1CCCNCC1; value = 79.2%
SMILES = COc1ccc2c3c1O[C@H]1C[C@@H](O)C=C[C@@]31CCN(C)C2; value = 102%
SMILES = C[C@@H]1CCN(C(=O)CC#N)C[C@@H]1N(C)c1ncnc2[nH]ccc12; value = 101%

Study 3
SMILES: N#Cc1c(NC(=O)c2cccc3ccccc23)sc2c1CCCC2
Effect on: enzyme activity
Mode: inhibitor
Concentration: 0.5 µM
Relative to: control
Endpoint: remaining activity
target = CAMKK2 (Homo sapiens, UniProt Q96RR4); value = 80.4%
target = PRKACA (Homo sapiens, UniProt P17612); value = 102%
target = MAP3K3 (Homo sapiens, UniProt Q99759); value = 99.8%
target = STK10 (Homo sapiens, UniProt O94804); value = 97.7%
target = Cyclin-dependent kinase 4, with cyclin D1 (CDK4, Homo sapiens, UniProt P11802); value = 98.7%
target = PRKCA (Homo sapiens, UniProt P17252); value = 99.5%
target = MAPK9 (Homo sapiens, UniProt P45984); value = 33.9%
target = IKBKE (Homo sapiens, UniProt Q14164); value = 94.3%
target = NEK2 (Homo sapiens, UniProt P51955); value = 88.1%
target = STK39 (Homo sapiens, UniProt Q9UEW8); value = 94.6%
target = CHEK2 (Homo sapiens, UniProt O96017); value = 98.5%
target = cGMP-dependent protein kinase 1, isoform beta (PRKG1, Homo sapiens, UniProt Q13976); value = 94.6%
target = DAPK1 (Homo sapiens, UniProt P53355); value = 109%
target = IKBKB (Homo sapiens, UniProt O14920); value = 97%
target = TGFBR1 (Homo sapiens, UniProt P36897); value = 101%
target = GRK3 (Homo sapiens, UniProt P35626); value = 106%
target = CAMK2D (Homo sapiens, UniProt Q13557); value = 97.7%
target = OXSR1 (Homo sapiens, UniProt O95747); value = 103%
target = TGFBR2 (Homo sapiens, UniProt P37173); value = 104%
target = DAPK2 (Homo sapiens, UniProt Q9UIK4); value = 105%
target = Protein kinase C beta type, isoform beta-I (PRKCB, Homo sapiens, UniProt P05771); value = 90.9%
target = Cyclin-dependent kinase 5, with p25 (CDK5, Homo sapiens, UniProt Q00535); value = 100%
target = Tyrosine-protein kinase Lyn, isoform B (LYN, Homo sapiens, UniProt P07948); value = 87%

Study 4
SMILES: CCOc1ccc(Nc2c3c(nc4ccccc24)CCC3)cc1
Organism: Leishmania donovani
Strain: DD8
Endpoint: inhibition
test = parasite killing; test system = intracellular amastigotes; setting = 20 µM, 48 h; value = 100%
test = parasite killing; test system = promastigotes; setting = 0.66 µM, 96 h; value = 24% and 37% and 20%
test = parasite killing; test system = promastigotes; setting = 3.33 µM, 72 h; value = 61% and 74%
test = parasite killing; test system = promastigotes; setting = 66.66 µM, 72 h; value = 100%
test = parasite viability, resazurin; test system = promastigotes; setting = 1.66 µM; value = 38% and 45% and 40% and 50% and 41% and 46%
test = parasite killing; test system = intracellular amastigotes; setting = 20 µM, 96 h; value = 100%
test = parasite killing; test system = intracellular amastigotes; setting = 2 µM, 96 h; value = 81% and 83% and 84%
test = parasite killing; test system = intracellular amastigotes; setting = 80 µM, 96 h; value = 100%

A few entries again (study 3):
target = GRK3 (Homo sapiens, UniProt P35626); value = 106%
target = CAMK2D (Homo sapiens, UniProt Q13557); value = 97.7%
target = OXSR1 (Homo sapiens, UniProt O95747); value = 103%
target = TGFBR2 (Homo sapiens, UniProt P37173); value = 104%
